Measured values from different studies.
A part holds a random share of what one study measured. Substitutions count along the parent as printed.

Series 1
Target: RING finger protein unkempt homolog, zinc fingers 1-6, GST-SBP tag (UNK, Homo sapiens, UniProt Q9C0B0, residues 30-357)
Sequence of UniProt Q9C0B0 (30-357, looked up): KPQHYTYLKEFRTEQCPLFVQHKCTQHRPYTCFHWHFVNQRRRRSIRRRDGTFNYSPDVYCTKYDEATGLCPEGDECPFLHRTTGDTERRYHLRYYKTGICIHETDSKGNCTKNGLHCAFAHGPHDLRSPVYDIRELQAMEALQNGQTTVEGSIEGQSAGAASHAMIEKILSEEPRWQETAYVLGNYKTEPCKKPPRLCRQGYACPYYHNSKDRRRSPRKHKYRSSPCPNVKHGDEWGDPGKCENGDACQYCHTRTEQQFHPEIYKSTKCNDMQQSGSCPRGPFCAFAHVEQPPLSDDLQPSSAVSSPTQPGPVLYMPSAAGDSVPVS
Method: RNA Bind-n-Seq
Form: RNA
Medium: in vitro
Tested at: not given
Setting: RNA with constant flanks, human-mouse chimeric sites, ends assumed
Reference: input RNA pool
Direction: higher = stronger binding
| Oligonucleotide | bound/input enrichment [ratio] |
| --- | --- |
| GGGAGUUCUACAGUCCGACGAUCCCUCUGCCCCGCUCUGCCCCUGCCUGCCACUGGGCUGGGACCAGAAUCCAGCUUUCUUUUAAAACUCUCAGUGUAACUGUAUCCCGUGACAUUUCAUUUUUUUUAAAUAGUGUAUUUUUUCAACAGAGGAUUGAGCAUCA | 4.54 |
| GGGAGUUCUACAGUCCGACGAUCACAGUUAUAUUGUUGAGUUUCAUUUUCAUAUAUUCUUGUAGUGUCUGCUUGCCUGUGUCUUUUAGUAAAAUAAAAUAAGCCUUUGAAAAUAUUUUAGCAUGGUAUUUAACAUUUUCUAAACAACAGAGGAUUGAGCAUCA | 3.61 |
| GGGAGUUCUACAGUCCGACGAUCUAAGUUAUUUUGUACAGCUUUGUAAAUUCUUAACAUUUUUAUAUUGCACAUUUUAUGUUGUUUGGGUAAUUUGGUUCAUUAAGUACAUAGCUAAGGUAAUGAACAUCGUAAUUAUAGAUUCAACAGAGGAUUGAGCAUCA | 1.6 |
| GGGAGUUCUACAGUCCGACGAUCAACUUCGUGCAUCGGUUUCCUUUUGUAGCUGUUUCAAUUGGCUUUGCUGUGAAUAAAGAGAUGGAGUUUGGAAUUGUGUACAGCUGUGUGGAAGAUAAGAUGUACACCGGCAGGAAAGGGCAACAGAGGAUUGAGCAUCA | 0.535 |
| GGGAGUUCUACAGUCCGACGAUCGCUCUUGGGAAUGUAAUCAGCGCCUUGGGGGACAAGAGCAAGAGGGCCACCCAUGUCCCUUACAGAGACUCUAAGCUGACAAGACUCUUGCAGGAUUCCCUUGGGGGUAAUAGCCAAACCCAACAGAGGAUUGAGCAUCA | 0.187 |
| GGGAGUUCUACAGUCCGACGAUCCGCUGGCCCAAGCUGAUGGACUCUGAUGGCCUCCAUCUCUCAGGCACGUGUGCCUUCUCUUAGUUAUUUCUGGGUUGAUGUUAUGAAUCUCAGUACUGUGGUUUGAAAGCACCAGCUUUGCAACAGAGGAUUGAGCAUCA | 1.69 |

Series 2
Target: Sal-like protein 4, full length isoform B (SALL4, Homo sapiens, UniProt Q9UJQ4-2, residues 1-616)
Method: universal PBM
Form: double-stranded DNA, one strand shown
Medium: in vitro
Tested at: not given
Setting: 8-mer, flanks averaged, mean of replicates
Direction: higher = stronger binding
| Oligonucleotide | E-score |
| --- | --- |
| AAACTACT | 0.165 |
| ACTTCGCG | -0.127 |
| AGGGAGAG | -0.0257 |
| ATAGGATC | 0.102 |
| CCAGCCCA | -0.35 |
| CCTTTCCC | -0.0628 |
| CAAGTACA | 0.0974 |
| AAAGCGTT | 0.0805 |
| CTTGTAAA | 0.196 |
| AGTGGCTC | -0.182 |
| AAGGGAGC | -0.317 |
| CGTTACAC | -0.118 |
| ATGACCTC | -0.124 |
| GATTACGA | 0.13 |
| AGTTAAAG | -0.0447 |
| AAAAGCGC | 0.116 |

Series 3
Target: Histone acetyltransferase KAT6A, winged helix 1, GST fusion (KAT6A, Homo sapiens, UniProt Q92794, residues 1-85)
Method: protein binding microarray
Form: double-stranded DNA, one strand shown
Medium: in vitro
Tested at: not given
Setting: 8-mer, flanks averaged, mean of 2 arrays, mostly near background
Reference: not given
Direction: higher = stronger binding
Target sequence (chain): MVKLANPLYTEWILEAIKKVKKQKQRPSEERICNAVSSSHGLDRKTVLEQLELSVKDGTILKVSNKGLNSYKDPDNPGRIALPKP
| Oligonucleotide | E-score |
| --- | --- |
| GCCTGGTA | -0.297 |
| AGCGCTTG | 0.318 |
| AGCCTGCC | 0.0406 |
| ATTGAGAG | -0.0865 |
| CGCAGGCG | 0.263 |
| CCATCTGA | -0.201 |
| TAATCCCA | -0.2 |
| ACGGTATC | 0.148 |
| CTCTTATC | -0.149 |

Series 4
Target: Interferon regulatory factor 7, full length, phosphomimetic (IRF7, Homo sapiens, UniProt Q92985, residues 1-503, S471D/S472D/S475D/S476D/S477D/S483D/S484D/S487D)
Method: protein-binding microarray
Form: double-stranded DNA, one strand shown
Medium: in vitro
Tested at: 2200 nM top
Setting: 60-bp whole probe
Together with: salmon DNA 0.4 mg/ml
Reference: random background probes
Direction: higher = stronger binding
All sequences stand within: GCCTAGCAC … GTCTTGATTCGCTTGACGCTGCTG
Construct (chain): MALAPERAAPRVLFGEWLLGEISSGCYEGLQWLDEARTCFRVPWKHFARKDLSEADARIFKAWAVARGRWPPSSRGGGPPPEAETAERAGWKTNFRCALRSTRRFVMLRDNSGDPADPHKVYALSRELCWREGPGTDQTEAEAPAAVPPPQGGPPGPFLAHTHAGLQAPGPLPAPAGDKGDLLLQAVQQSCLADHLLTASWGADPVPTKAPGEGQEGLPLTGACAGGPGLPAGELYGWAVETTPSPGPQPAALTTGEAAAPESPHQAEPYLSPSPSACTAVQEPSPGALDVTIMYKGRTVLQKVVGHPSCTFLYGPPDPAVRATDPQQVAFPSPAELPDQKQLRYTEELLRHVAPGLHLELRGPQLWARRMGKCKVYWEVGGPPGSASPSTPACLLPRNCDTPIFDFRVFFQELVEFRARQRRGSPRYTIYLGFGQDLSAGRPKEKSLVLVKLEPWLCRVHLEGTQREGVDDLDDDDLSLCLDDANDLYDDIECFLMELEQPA
| Oligonucleotide | fitted relative affinity [z-score] |
| --- | --- |
| GACGGTTTCGGTATAGGGACGTGCTAG | 6.76 |
| TTAGACTTCGGGTTTCGATTAGTGCTA | 2.55 |
| TCAATGTTCCCTATTTAACTGTGCTAG | 1.68 |
| GACGGACTAGGGACTGGGGACGTGCTA | -0.937 |
| TCAGTTTTCATTATTGTACTGTGCTAG | 2.85 |
| GACGCTTTCAGTCTCGAGACGTGCTAG | 2.23 |
| TTAGATCTCATTATCGATTAGTGCTAG | 0.607 |
| CTGCTCTGTGCACAGAAGACGTGCTAG | 0.662 |
| TGAGATTTCAGTTTCGATTAGTGCTAG | 7.48 |
| TCATTGTTCTCTCTGGCACTGTGCTAG | 1.59 |
| TTAGAACTGGGGACTGGATAAGTGCTA | -0.61 |
| GACGGTCTCCTTCTCCTAACGTGCTAG | 1.2 |

Series 5
Target: CCNE2, cyclin fold, Cln2 fusion (human)
Method: yeast growth competition, sequencing
Medium: yeast
Setting: weak parent motif
Reference: not given
Direction: higher = stronger binding
Starting sequence: SAMHD1 docking peptide (human); ASKSRVQLFKDDP
| Change | normalised enrichment score |
| --- | --- |
| V6L | 0.185 |
| S2L | 0.391 |
| V6S | -0.394 |
| R5K | 0.251 |
| K10S | 0.699 |
| L8E | -0.0926 |
| S4N | 0.293 |
| L8A | -0.104 |
| R5Q | -0.171 |
| L8T | -0.101 |
| D12F | 0.125 |
| K10W | 0.0809 |
| S4W | 0.304 |

Series 6
Target: Fragile X messenger ribonucleoprotein 1, C-terminal low-complexity region (Fmr1, Mus musculus, UniProt P35922)
Method: RNA Bind-n-Seq
Form: RNA
Medium: in vitro
Tested at: 200 nM
Setting: whole 134-nt RNA, ends assumed
Together with: 150 mM KCl
Reference: input library
Direction: higher = stronger binding
| Oligonucleotide | log2 enrichment |
| --- | --- |
| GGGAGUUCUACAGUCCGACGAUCGCAGGAAGUAAAAACAAAUGGAAAUGGUUCGGAUAGUGGCAGGGGUGGGGGUUGCUAAGGAAAGGGUGGGAUGGGAGUGGGUAAAGAGUUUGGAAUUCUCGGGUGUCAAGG | 0.177 |
| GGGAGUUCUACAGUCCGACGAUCCAAGUCCUGUGCUACACAUCGUAUGUACCGAAUCGGAAAAAGGAAAAAAAGGAGGAAAGUAUUAUGUUACGCCGUUCGGAUCUGCACUUCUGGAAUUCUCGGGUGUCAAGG | -0.759 |
| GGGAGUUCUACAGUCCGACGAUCAGUCCUGUGCUACACAUCGUAUGUACCGAAUCGGUUUUUGGGGUUUUUGGGUUUUUGGAAAGUAUUAUGUUACGCCGUUCGGAUCUGCACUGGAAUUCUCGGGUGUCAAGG | -0.197 |
| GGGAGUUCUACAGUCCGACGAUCCUCAAGUCCUGUGCUACACAUCGUAUGUACCGAAUCGGAAAGGAAAAAGGAGGAAAGUAUUAUGUUACGCCGUUCGGAUCUGCACUUCCAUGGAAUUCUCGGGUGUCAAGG | -0.153 |
| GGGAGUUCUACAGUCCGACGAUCGUCCUGUGCUACACAUCGUAUGUACCGAAUCGGGGUUUUUUUGGGGAAAGGGGUGGGGAAAGUAUUAUGUUACGCCGUUCGGAUCUGCACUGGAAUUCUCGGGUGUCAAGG | 0.483 |
| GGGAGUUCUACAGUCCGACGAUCUCCUGUGCUACACAUCGUAUGUACCGAAUCGGGGCCCCCGGGGCCCCCGGGCCCCCGGGGAAAGUAUUAUGUUACGCCGUUCGGAUCUGCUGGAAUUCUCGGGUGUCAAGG | -0.918 |
| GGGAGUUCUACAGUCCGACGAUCGCAGGAAGUAAAAACAAAUGGAAAUGCUUCGGAGAGUGGCAGGGGUGGGGGUUGCUAAGGAAAGGGUGGGAUGGGAGUGGGUAAAGAGUUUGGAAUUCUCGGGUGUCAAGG | 0.101 |
| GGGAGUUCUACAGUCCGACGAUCAAGUCCUGUGCUACACAUCGUAUGUACCGAAUCGGUGGUUUUUUUGGAAAAAAAGGAAAGUAUUAUGUUACGCCGUUCGGAUCUGCACUUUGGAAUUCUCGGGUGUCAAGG | -0.864 |
| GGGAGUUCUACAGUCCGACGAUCGUCCUGUGCUACACAUCGUAUGUACCGAAUCGGGGAAAAAGGAAAAAGGGGAAAAAGGAAAGUAUUAUGUUACGCCGUUCGGAUCUGCACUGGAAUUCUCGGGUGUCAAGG | -0.0968 |

Series 7
Target: Phosphate system positive regulatory protein PHO4, full length, GST-tagged (PHO4, Saccharomyces cerevisiae, UniProt P07270, residues 1-312)
Method: competition protein-binding microarray
Form: double-stranded DNA, one strand shown
Medium: in vitro
Tested at: 2 µM
Setting: whole 60-bp probe, lowest competitor level
Together with: Cbf1 competitor, 0.05 µM
Direction: higher = stronger binding
Target sequence (chain): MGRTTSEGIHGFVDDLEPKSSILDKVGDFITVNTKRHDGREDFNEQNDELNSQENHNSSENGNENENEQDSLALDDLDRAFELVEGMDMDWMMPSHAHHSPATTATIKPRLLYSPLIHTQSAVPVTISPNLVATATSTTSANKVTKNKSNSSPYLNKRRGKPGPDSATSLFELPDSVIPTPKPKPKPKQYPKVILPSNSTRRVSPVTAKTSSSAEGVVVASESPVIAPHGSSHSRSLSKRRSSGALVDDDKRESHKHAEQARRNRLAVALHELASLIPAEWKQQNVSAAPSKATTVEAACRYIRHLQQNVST
| Oligonucleotide | fluorescence intensity [a.u.] |
| --- | --- |
| CTTCTGTAAATTTGTTTAGTGGGTGGACGCGCCCCGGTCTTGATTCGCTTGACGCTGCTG | 3990 |
| AATTGGAAAGGCCTTCACATGGTGATCCATCTTCTAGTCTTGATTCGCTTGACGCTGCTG | 5340 |
| TTTCCAAAACTCCAACACGTGATGGATAAGATAGTCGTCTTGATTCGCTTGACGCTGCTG | 15300 |
| AACGGAAATGCATCTCGCGTGGCAAGGCGGCTCGCTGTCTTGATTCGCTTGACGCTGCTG | 7540 |
| CTAACGAAGGTTTGTTGTGTGGGTGACAAGCCAAGTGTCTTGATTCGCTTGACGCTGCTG | 4210 |
| TCCAAGACGGTTAATCTCGTGATGGATTTTGACTACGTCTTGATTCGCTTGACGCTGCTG | 6720 |
| CGGGGTTAAGTTTGGAGTGTGGGTGGCTTGCAGCAGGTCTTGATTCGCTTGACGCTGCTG | 5430 |
| GTCTTGTCTCATTGCGAGGTGGGTGTCCCCACTTCAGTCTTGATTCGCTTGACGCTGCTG | 4530 |
| CGGGGTTAAGTTTGCCGTGTGGGTGGCTTGCAGCAGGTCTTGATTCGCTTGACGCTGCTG | 5370 |
| CATACCCAACCTTTTCACGTGATGTAAGATATTTGTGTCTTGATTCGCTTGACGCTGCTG | 14800 |
